Results gathered from unrelated publications.
A part holds a random share of what one study measured.
Sequence of UniProt Q96Q40 (whole entry, looked up): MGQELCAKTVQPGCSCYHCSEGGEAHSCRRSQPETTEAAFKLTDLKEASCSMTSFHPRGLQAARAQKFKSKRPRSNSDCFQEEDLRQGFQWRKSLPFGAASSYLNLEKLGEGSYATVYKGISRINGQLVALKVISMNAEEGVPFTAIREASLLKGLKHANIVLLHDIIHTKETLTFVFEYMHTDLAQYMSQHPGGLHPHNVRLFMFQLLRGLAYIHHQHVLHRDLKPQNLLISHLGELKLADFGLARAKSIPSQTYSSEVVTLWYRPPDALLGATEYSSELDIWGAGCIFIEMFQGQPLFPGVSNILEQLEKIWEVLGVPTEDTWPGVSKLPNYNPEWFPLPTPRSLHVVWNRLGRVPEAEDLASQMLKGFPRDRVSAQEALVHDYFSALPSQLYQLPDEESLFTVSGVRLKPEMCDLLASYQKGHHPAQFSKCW
Sequence of UniProt P11802 (whole entry, looked up): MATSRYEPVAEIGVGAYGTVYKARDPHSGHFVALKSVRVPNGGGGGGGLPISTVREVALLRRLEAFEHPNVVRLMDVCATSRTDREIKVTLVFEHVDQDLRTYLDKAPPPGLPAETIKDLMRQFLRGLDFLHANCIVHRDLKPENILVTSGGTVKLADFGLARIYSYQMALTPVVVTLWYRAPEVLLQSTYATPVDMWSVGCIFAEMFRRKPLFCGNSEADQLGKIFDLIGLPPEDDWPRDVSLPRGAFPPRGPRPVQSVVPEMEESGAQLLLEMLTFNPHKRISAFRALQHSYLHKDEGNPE
Sequence of UniProt Q9NR20 (whole entry, looked up): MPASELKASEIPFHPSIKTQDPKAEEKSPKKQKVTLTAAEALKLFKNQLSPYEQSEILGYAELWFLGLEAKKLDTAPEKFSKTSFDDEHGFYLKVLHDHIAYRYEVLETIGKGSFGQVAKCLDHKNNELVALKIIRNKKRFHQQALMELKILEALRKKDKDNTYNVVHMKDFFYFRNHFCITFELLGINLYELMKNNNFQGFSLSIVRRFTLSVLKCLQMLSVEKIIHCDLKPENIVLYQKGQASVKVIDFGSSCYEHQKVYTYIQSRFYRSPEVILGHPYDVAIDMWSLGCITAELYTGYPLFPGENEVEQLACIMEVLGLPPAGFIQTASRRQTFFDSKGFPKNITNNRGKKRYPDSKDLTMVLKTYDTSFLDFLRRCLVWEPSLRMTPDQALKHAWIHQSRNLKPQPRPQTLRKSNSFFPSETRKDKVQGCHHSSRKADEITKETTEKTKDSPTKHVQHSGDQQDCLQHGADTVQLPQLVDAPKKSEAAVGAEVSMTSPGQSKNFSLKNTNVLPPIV
Sequence of UniProt P20794 (whole entry, looked up): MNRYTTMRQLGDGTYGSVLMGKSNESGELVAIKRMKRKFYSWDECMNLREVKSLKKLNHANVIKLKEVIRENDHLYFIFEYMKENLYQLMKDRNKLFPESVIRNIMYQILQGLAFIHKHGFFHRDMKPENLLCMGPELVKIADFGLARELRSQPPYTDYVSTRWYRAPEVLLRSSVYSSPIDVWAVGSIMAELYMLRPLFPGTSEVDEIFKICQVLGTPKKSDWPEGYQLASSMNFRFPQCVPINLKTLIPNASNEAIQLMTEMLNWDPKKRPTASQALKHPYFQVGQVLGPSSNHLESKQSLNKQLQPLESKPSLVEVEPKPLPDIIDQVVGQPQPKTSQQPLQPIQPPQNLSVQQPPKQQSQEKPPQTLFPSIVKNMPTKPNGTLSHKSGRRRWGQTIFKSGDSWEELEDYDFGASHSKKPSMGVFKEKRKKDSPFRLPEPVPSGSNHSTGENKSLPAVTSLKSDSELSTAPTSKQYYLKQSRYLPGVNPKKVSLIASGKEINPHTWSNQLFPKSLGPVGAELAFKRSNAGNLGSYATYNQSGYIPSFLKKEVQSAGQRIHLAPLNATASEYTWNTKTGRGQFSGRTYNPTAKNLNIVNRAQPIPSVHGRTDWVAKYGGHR
Sequence of UniProt P0C1S8 (whole entry, looked up): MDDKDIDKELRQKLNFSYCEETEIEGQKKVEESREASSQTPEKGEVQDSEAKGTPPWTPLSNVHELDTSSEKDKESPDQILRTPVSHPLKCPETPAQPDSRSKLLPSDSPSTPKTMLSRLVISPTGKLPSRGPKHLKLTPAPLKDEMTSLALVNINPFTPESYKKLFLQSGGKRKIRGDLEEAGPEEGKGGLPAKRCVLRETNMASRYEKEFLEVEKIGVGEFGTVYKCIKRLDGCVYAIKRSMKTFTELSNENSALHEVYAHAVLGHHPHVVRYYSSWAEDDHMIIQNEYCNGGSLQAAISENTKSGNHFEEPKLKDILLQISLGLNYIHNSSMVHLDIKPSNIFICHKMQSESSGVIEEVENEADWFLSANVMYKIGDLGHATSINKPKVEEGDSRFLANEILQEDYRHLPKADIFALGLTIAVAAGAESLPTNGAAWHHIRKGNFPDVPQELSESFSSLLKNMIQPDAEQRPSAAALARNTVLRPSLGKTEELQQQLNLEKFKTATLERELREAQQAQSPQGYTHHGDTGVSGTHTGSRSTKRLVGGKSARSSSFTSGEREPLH
Sequence of UniProt Q09013 (whole entry, looked up): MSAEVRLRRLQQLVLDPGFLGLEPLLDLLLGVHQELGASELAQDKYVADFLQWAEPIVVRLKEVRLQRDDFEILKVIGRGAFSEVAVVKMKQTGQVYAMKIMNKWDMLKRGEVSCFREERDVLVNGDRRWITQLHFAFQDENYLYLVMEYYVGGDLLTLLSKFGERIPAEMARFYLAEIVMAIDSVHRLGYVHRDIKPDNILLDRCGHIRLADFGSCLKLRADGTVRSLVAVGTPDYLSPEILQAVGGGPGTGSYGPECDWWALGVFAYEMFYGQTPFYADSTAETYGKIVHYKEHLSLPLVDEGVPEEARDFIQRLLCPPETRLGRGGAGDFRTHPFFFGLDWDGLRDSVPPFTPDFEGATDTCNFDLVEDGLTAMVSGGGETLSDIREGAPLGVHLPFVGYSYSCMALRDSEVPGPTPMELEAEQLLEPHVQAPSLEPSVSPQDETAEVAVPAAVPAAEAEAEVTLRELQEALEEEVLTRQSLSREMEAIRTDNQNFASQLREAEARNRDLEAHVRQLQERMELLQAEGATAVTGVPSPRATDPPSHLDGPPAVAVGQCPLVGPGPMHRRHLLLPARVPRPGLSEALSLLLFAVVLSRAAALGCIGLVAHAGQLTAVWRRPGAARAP
Sequence of UniProt P19784 (whole entry, looked up): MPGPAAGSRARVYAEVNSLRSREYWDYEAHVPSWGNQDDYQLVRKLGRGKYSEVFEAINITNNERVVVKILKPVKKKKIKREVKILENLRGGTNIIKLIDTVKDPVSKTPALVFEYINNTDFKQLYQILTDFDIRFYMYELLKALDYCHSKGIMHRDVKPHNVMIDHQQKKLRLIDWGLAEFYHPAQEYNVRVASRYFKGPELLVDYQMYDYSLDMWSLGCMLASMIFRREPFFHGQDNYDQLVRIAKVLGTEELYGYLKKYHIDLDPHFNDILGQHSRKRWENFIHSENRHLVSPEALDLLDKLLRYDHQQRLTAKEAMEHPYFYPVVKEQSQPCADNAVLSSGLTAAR
Sequence of UniProt P41279 (whole entry, looked up): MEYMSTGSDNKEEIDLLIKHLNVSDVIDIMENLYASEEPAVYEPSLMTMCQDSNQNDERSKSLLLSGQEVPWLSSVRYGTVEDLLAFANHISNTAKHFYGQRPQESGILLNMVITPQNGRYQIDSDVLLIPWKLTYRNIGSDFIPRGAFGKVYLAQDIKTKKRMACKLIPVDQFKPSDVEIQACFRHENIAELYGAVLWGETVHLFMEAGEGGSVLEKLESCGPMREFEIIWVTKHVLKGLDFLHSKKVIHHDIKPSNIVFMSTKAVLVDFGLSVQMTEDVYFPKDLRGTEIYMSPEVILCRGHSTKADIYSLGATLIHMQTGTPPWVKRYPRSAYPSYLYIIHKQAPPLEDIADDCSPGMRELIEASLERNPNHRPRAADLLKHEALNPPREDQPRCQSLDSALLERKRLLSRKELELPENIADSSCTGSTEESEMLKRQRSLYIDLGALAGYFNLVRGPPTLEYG
Sequence of UniProt Q96NX5 (whole entry, looked up): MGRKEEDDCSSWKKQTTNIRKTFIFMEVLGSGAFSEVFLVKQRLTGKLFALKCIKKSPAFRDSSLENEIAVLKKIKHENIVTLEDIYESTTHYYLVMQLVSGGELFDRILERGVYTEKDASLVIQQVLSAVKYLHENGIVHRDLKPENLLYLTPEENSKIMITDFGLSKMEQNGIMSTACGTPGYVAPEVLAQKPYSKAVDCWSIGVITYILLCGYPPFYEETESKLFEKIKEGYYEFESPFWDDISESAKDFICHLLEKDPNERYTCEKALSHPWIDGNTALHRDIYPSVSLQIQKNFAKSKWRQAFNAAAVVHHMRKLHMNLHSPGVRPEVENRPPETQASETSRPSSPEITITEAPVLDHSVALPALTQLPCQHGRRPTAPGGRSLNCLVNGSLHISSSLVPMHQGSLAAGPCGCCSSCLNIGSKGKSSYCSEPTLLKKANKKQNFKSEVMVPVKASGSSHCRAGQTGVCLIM
Sequence of UniProt P34947 (whole entry, looked up): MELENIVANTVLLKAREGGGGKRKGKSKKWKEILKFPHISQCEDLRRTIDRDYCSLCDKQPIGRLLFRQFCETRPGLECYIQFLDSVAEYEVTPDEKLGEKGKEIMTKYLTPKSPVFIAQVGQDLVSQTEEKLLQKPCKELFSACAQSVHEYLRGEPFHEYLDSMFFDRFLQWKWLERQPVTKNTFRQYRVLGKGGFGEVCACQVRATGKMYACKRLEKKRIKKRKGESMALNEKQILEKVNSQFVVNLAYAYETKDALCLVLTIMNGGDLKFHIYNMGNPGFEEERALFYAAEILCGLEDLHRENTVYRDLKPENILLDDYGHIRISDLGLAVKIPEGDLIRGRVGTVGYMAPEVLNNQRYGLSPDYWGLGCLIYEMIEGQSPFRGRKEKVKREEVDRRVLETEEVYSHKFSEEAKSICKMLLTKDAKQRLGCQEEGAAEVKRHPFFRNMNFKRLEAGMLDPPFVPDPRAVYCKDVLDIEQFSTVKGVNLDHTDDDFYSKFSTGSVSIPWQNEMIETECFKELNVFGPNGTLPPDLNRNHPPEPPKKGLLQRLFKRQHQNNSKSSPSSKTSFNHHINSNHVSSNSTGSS

Set 1
Structure (SMILES): O=C(NS(=O)(=O)c1ccc(NCC2CCOCC2)c([N+](=O)[O-])c1)c1ccc(N2CCN(Cc3ccc(C(F)(F)F)cc3-c3ccc(Cl)cc3)CC2)cc1Oc1cnc2[nH]ccc2c1
Observed: cell-free assay
Technique: competition with immobilised ligand
Concentration: 1 µM
The remaining binding was 94% (EIF2AK2 (Homo sapiens, UniProt P19525)).
Tyrosine-protein kinase ABL1, phosphorylated (ABL1, Homo sapiens, UniProt P00519, Y253F) — remaining binding: 96%.
CDK15 (Homo sapiens, UniProt Q96Q40) — remaining binding: 100%.
FLT3 (Homo sapiens, UniProt P36888, D835Y) — remaining binding: 99%.
It gave 93% for remaining binding (ACVR2A (Homo sapiens, UniProt P27037)).
The remaining binding was 95% (TNNI3K (Homo sapiens, UniProt Q59H18)).

Set 2
Cell line: mouse MPNST tumor cells
Technique: high-content nuclear imaging
Refers to: cell number
Concentration: 10 µM
Time: 12 h
Notes: mean of 2 replicates
Relative to: plate mean
Reading: higher = more cells
With `C1CCC(C(CC2CCCCN2)C2CCCCC2)CC1` (centres unmarked) the nuclei count was -5.36 z-score.
With `CC(C)(C)Nc1nc(Nc2ccc(C(N)=O)cc2)cc(N)c1C#N` the nuclei count was 1.69 z-score.
With `COc1ccccc1Nc1nc(-c2sc(NC(C)=O)nc2C)cs1` the nuclei count was 0.578 z-score.
`Clc1cccc(Cl)c1CSc1nnc(-c2cnccn2)s1` gave a nuclei count of -3.61 z-score.
The nuclei count of `O=S(=O)(NC1CCC(c2cc(F)ccc2F)(S(=O)(=O)c2ccc(Cl)cc2)CC1)C(F)(F)F` (centres unmarked) is reported as 1.2 z-score.
For `Nc1ncnc2c1c(-c1cnc3[nH]ccc3c1)nn2C1CCCC1`, the nuclei count was 0.105 z-score.
With `COc1ncnc(NS(=O)(=O)c2ccc(N)cc2)c1OC` the nuclei count was 1.09 z-score.

Set 3
Structure (SMILES): COc1ccc(C(=O)Nc2sc3c(c2C(N)=O)CCCC3)cc1OC
Observed: enzyme activity
Action: inhibitor
Concentration: 0.5 µM
Relative to: control
For HIPK3 (Homo sapiens, UniProt Q9H422): remaining activity read 105%.
PTK2B (Homo sapiens, UniProt Q14289) — remaining activity: 95.5%.
The remaining activity was 98.5% (DYRK4 (Homo sapiens, UniProt Q9NR20)).
For MAP3K8 (Homo sapiens, UniProt P41279): remaining activity read 106%.
The remaining activity was 104% (CSNK2A2 (Homo sapiens, UniProt P19784)).
The remaining activity was 99.6% (PRKD1 (Homo sapiens, UniProt Q15139)).
GRK5 (Homo sapiens, UniProt P34947) — remaining activity: 104%.
It gave 108% for remaining activity (DMPK (Homo sapiens, UniProt Q09013)).
The remaining activity was 99.4% (CAMK1G (Homo sapiens, UniProt Q96NX5)).
It gave 97.9% for remaining activity (Aurora kinase A (AURKA, Homo sapiens, UniProt O14965)).
For Cyclin-dependent kinase 2, with cyclin A (CDK2, Homo sapiens, UniProt P24941): remaining activity read 103%.
It gave 92.3% for remaining activity (ROCK2 (Homo sapiens, UniProt O75116)).
The remaining activity was 94.6% (NEK9 (Homo sapiens, UniProt Q8TD19)).
The remaining activity was 84.5% (MAPK10 (Homo sapiens, UniProt P53779)).

Set 4
SMILES: C=CC(=O)N1CCC[C@@H](n2nc(-c3ccc(Oc4ccccc4)cc3)c3c(N)ncnc32)C1
Action: inhibitor
Concentration: 1 µM
It gave 21% for inhibition (STK11 (Homo sapiens, UniProt Q15831); enzyme activity).
It gave 18% for inhibition (WEE2 (Homo sapiens, UniProt P0C1S8); enzyme activity).
For Cyclin-dependent kinase 4, with cyclin D3 (CDK4, Homo sapiens, UniProt P11802): inhibition read 14%.
CDK15 (Homo sapiens, UniProt Q96Q40); enzyme activity — inhibition: 12%.
For MAK (Homo sapiens, UniProt P20794); enzyme activity: inhibition read 13%.

Repeated from above (set 1):
The remaining binding was 94% (EIF2AK2 (Homo sapiens, UniProt P19525)).
The remaining binding was 95% (TNNI3K (Homo sapiens, UniProt Q59H18)).
